Experimental data collected from several papers.
Parts stem from different laboratories: compare values within a part only. “And” joins repeats or separate records; there may be more than shown.
Sequence of UniProt Q9Y6E0 (whole entry, looked up): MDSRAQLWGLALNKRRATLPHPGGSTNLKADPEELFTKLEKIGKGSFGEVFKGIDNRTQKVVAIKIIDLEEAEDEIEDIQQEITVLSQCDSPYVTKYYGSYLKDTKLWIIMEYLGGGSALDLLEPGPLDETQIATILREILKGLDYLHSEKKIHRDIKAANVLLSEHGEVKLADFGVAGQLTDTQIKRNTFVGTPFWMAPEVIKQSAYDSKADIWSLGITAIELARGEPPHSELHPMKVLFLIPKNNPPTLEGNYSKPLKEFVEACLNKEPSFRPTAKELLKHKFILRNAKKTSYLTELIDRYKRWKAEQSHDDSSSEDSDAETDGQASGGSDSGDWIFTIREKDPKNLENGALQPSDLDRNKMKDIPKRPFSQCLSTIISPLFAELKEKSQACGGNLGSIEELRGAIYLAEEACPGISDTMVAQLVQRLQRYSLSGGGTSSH
Sequence of UniProt P05177 (whole entry, looked up): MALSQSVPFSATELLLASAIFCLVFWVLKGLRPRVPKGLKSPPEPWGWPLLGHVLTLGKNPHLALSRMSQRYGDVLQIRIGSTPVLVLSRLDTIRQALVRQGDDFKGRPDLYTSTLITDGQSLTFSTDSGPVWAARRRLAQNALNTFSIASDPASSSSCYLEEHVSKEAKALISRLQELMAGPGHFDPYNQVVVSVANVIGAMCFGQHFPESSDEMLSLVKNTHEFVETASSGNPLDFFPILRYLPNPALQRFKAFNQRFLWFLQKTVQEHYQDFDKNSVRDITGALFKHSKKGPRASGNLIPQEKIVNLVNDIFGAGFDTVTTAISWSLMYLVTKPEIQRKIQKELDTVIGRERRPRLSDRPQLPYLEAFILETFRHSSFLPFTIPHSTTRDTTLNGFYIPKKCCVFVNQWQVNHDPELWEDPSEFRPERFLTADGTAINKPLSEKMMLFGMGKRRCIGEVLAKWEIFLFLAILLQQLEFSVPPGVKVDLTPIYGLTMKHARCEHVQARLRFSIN

Block 1 — effect on: binding; mode: competitor; method: NanoBRET; cells: HEK293; measurement: normalized BRET
SMILES: C=CC(=O)N1CCN(c2nc(OC[C@@H]3CCCN3C)nc3c2CCN(c2cccc4cccc(C)c24)C3)C[C@@H]1CC#N
KRAS Q61L: GTPase KRas (KRAS, Homo sapiens, UniProt P01116, Q61L)
KRAS G12D: GTPase KRas (KRAS, Homo sapiens, UniProt P01116, G12D)
HRAS: GTPase HRas (HRAS, Homo sapiens, UniProt P01112)
KRAS Q61L; 3.05 nM: 97.2% and 99% and 94.5%
KRAS Q61L; 1.02 nM: 102% and 101% and 94.7%
KRAS Q61L; 82.2 nM: 89.6% and 90.7% and 91.2%
KRAS G12D; 10 µM: 44.4%
KRAS G12D; 1.02 nM: 99.4% and 98.2%
HRAS; 2.22 µM: 115% and 87.3%
HRAS; 82.2 nM: 87.1% and 103%

Block 2 — effect on: binding; method: competition with immobilised ligand; concentration: 1 µM; measurement: remaining binding
Compound: COc1cc(-c2nc3ccc(C(=O)NCCCN(C)C)cc3n2C2CCC2)cc(OC)c1OC
Epidermal growth factor receptor (EGFR, Homo sapiens, UniProt P00533, del752-759): 86%
Serine/threonine-protein kinase 26 (STK26, Homo sapiens, UniProt Q9P289): 100%
Serine/threonine-protein kinase RIO3 (RIOK3, Homo sapiens, UniProt O14730): 100%
Phosphatidylinositol 3-kinase catalytic subunit type 3 (PIK3C3, Homo sapiens, UniProt Q8NEB9): 74%
Macrophage-stimulating protein receptor (MST1R, Homo sapiens, UniProt Q04912): 100%
Phosphorylase b kinase gamma catalytic chain, skeletal muscle/heart isoform (PHKG1, Homo sapiens, UniProt Q16816): 100%
Serine/threonine-protein kinase PLK4 (PLK4, Homo sapiens, UniProt O00444): 100%
Tyrosine-protein kinase receptor UFO (AXL, Homo sapiens, UniProt P30530): 91%

Block 3 — effect on: enzyme activity; sample: human liver microsomes; relative to: negative control; measurement: remaining activity
SMILES: Cn1cc(-c2cccc(CN3CCC4(CC3)COc3c4ccc4c3CN([C@H]3CCC(=O)NC3=O)C4=O)c2)cn1
CYP3A4: Cytochrome P450 3A4 (CYP3A4, Homo sapiens, UniProt P08684)
Sequence of UniProt P08684 (whole entry, looked up): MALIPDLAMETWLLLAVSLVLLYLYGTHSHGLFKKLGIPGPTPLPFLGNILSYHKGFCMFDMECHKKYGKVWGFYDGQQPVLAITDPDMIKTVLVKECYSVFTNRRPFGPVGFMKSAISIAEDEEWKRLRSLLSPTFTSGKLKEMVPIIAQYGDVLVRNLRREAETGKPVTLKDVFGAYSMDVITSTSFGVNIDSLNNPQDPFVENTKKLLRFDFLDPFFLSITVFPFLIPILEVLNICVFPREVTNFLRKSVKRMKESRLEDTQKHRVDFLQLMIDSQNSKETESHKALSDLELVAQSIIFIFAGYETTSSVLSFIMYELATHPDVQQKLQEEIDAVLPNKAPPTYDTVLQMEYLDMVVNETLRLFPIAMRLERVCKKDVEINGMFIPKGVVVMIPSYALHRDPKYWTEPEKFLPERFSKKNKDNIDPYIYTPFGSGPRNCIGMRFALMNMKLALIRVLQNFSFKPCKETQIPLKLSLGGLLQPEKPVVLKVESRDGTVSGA
CYP2C19: Cytochrome P450 2C19 (CYP2C19, Homo sapiens, UniProt P33261)
Sequence of UniProt P33261 (whole entry, looked up): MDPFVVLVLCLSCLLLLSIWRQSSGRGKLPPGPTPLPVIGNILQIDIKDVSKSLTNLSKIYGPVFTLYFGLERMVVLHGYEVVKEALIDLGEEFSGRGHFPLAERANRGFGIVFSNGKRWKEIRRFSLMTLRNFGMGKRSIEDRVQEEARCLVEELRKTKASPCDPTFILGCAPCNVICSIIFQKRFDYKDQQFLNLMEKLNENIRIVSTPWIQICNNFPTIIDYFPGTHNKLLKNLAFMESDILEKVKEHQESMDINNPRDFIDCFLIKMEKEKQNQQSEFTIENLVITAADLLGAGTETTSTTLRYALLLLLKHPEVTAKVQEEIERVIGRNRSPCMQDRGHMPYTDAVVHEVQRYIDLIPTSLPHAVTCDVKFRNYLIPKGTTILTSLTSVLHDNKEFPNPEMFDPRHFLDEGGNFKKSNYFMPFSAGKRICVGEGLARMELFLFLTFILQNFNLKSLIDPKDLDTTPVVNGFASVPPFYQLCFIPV
CYP2C8: Cytochrome P450 2C8 (CYP2C8, Homo sapiens, UniProt P10632)
Sequence of UniProt P10632 (whole entry, looked up): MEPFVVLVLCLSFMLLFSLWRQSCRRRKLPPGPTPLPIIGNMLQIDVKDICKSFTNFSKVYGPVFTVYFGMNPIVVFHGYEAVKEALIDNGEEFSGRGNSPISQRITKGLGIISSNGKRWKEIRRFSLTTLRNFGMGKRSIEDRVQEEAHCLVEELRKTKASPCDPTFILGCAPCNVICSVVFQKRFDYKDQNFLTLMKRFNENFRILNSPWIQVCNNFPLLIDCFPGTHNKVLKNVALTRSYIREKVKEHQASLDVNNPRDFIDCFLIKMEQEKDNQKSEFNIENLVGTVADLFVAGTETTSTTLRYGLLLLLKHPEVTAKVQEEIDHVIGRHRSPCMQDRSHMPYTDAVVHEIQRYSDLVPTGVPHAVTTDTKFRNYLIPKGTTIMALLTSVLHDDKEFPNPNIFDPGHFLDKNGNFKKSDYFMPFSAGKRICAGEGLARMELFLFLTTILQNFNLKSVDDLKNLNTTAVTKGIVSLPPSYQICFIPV
CYP2D6: Cytochrome P450 2D6 (CYP2D6, Homo sapiens, UniProt P10635)
Sequence of UniProt P10635 (whole entry, looked up): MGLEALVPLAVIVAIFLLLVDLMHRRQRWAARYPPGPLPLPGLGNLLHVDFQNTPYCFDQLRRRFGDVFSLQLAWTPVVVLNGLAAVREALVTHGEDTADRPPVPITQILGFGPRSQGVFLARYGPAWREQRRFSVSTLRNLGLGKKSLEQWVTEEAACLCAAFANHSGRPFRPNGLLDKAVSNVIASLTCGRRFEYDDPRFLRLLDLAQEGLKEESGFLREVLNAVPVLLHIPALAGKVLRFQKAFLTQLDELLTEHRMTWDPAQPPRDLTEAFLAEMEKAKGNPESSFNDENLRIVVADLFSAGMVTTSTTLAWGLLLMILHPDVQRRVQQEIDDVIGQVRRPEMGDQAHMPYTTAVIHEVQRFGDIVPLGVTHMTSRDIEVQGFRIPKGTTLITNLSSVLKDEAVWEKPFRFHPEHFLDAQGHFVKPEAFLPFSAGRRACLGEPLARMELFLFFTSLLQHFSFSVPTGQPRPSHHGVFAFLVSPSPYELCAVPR
CYP3A4; 1.11 µM, with: midazolam substrate: 101%
CYP2C19; 0.37 µM: 99.9%
CYP3A4; 1.11 µM, with: testosterone substrate: 96.2%
CYP2C8; 10.00 µM: 112%
Cytochrome P450 1A2 (CYP1A2, Homo sapiens, UniProt P05177); 10.00 µM: 90.7%
CYP2D6; 0.0137 µM: 100%
CYP2C8; 0.37 µM: 106%
CYP2D6; 1.11 µM: 105%
CYP2C19; 0.04 µM: 101%

Block 4 — SMILES: O=C(Nc1ccccc1)Nc1cccc(Oc2ccc3nccn3n2)c1; measurement: remaining binding
Serine/threonine-protein kinase MRCK gamma (CDC42BPG, Homo sapiens, UniProt Q6DT37); DiscoverX cell-free binding; 1000 nM: 100%
STE20-like serine/threonine-protein kinase (SLK, Homo sapiens, UniProt Q9H2G2); binding, competition with immobilised ligand; 1 µM: 88%
Receptor tyrosine-protein kinase erbB-2 (ERBB2, Homo sapiens, UniProt P04626); binding, competition with immobilised ligand; 1 µM: 62%
Proto-oncogene tyrosine-protein kinase ROS (ROS1, Homo sapiens, UniProt P08922); binding; 1 µM: 100%
Dual specificity tyrosine-phosphorylation-regulated kinase 1B (DYRK1B, Homo sapiens, UniProt Q9Y463); binding; 1 µM: 55%
Tyrosine-protein kinase receptor Tie-1 (TIE1, Homo sapiens, UniProt P35590); binding, competition with immobilised ligand; 1 µM: 100%
Serine/threonine-protein kinase 24 (STK24, Homo sapiens, UniProt Q9Y6E0); binding; 1 µM: 97%
Serine/threonine-protein kinase SIK3 (SIK3, Homo sapiens, UniProt Q9Y2K2); cell-free binding; 1 µM: 100%

Repeated from above (block 3):
CYP3A4; 1.11 µM, with: testosterone substrate: 96.2%
CYP2C8; 10.00 µM: 112%
Cytochrome P450 1A2 (CYP1A2, Homo sapiens, UniProt P05177); 10.00 µM: 90.7%
CYP2D6; 0.0137 µM: 100%
